Experimental data collected from several papers.
Each line is one published result; not all experiments were run side by side. ± gives the spread as reported.
UCHL1: Ubiquitin carboxyl-terminal hydrolase isozyme L1 (UCHL1, Homo sapiens, UniProt P09936)
UniProt P09936, sequence (whole entry, looked up): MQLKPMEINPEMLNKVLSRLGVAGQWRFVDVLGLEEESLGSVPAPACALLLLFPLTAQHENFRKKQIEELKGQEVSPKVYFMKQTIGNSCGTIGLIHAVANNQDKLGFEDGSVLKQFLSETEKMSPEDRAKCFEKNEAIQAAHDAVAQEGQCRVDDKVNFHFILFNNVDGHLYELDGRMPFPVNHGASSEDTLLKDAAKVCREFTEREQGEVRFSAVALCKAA

For `O=C(O)CCC(=O)OCCN(Cc1ccc(Oc2ccc([N+](=O)[O-])cc2)cc1)C(=O)C(Cl)Cl`, the IC50 was 4.04 ± 1.62 µM (Leishmania donovani; parasite growth; THP-1-derived macrophages, intracellular amastigotes; 48 h).
For `C[C@@H]1O[C@@H](OC[C@H]2O[C@@H](Oc3cc4c(O)cc(O)cc4[o+]c3-c3ccc(O)c(O)c3)[C@H](O)[C@@H](O)[C@@H]2O)[C@H](O)[C@H](O)[C@H]1O`, the IC50 was > 100 µM (HIV-1; viral infection; TZM-bl, NL4-3 (CXCR4-tropic); 48 h).
For `O=C(Nc1ccnc(C(F)(F)F)c1)Nc1cccc2c1OC(F)(F)O2`, the IC50 was 1 µM (Leishmania donovani; MHOM/ET/67/L-82, axenic amastigotes).
`O=C(C#Cc1ccc(F)c(F)c1)c1ccccc1Cl` gave an IC50 of 10 µM (Pseudomonas aeruginosa; biofilm formation; PA14; static).
The IC50 of `O=C(Nc1ccc2c(c1)B(O)OC2)Nc1ccc(F)c(C(F)(F)F)c1` is reported as 0.97 µM (Leishmania donovani; MHOM/ET/67/L-82, axenic amastigotes).
With `OC[C@H]1O[C@@H](Oc2cc3c(O)cc(O)cc3[o+]c2-c2ccc(O)c(O)c2)[C@H](O)[C@@H](O)[C@H]1O` the IC50 was > 100 µM (HIV-1; viral infection; TZM-bl, BaL (CCR5-tropic); 48 h).
The inhibition of `CCn1ncc(CN2CCCC(C(=O)c3cccc(OC(C)C)c3)C2)c1C` (stereo not shown) is reported as -10.5% (Trypanosoma cruzi; reporter translation, Renilla luciferase mRNA translation; cell-free extract; 40 µM; relative to: DMSO).
For `COc1cc(C)c(-c2c(C)cc(OC)c3c(=O)cc(-c4ccccc4Br)oc23)c2oc(-c3ccccc3Br)cc(=O)c12`, the IC50 was 39.6 ± 8.25 µM (Toxoplasma gondii; parasite proliferation, 3H-uracil incorporation; ME49 tachyzoites).
`CCCCC[C@H](O)/C=C/[C@@H]1[C@@H](C/C=C\CCCC(=O)O)[C@@H](O)C[C@H]1O` has an IC50 of > 100 µM (Leishmania martiniquensis; promastigote growth, alamarBlue; 72 h).
`OC[C@H]1O[C@@H](Oc2cc3c(O)cc(O)cc3[o+]c2-c2ccc(O)c(O)c2)[C@H](O[C@@H]2OC[C@@H](O)[C@H](O)[C@H]2O)[C@@H](O)[C@@H]1O` has an IC50 of 51.3 µM (HIV-1; viral infection; TZM-bl, NL4-3 (CXCR4-tropic); 48 h).
`COc1cc(OC)c2c(=O)cc(-c3ccc(N(C)C)cc3)oc2c1-c1c(OC)cc(OC)c2c(=O)cc(-c3ccc(N(C)C)cc3)oc12` gave an IC50 of 12.3 ± 4.01 µM (Toxoplasma gondii; parasite proliferation, 3H-uracil incorporation; ME49 tachyzoites).
The IC50 of `COc1cc(C#CC(=O)c2ccccc2OC)ccc1O` is reported as 21 µM (Pseudomonas aeruginosa; biofilm formation; PA14; static).
For `N#CC(=Cc1cccc(Cl)c1Cl)C(N)=O`, the labelling was 34.1% (UCHL1; covalent, intact protein LC-MS; 12.5 µM).
With `CC(C)Oc1ccc(-c2nc(-c3cccc4c3CC[C@@H]4NCCO)no2)cc1C#N.Cl` the IC50 was 16 ± 1.23 µg/mL (Clostridioides difficile; ATCC 43255; spores).
`COc1cc(C)c(-c2c(C)cc(OC)c3c(=O)cc(-c4cccc(Br)c4)oc23)c2oc(-c3cccc(Br)c3)cc(=O)c12` gave an IC50 of 12.3 ± 3.1 µM (Toxoplasma gondii; parasite proliferation, 3H-uracil incorporation; ME49 tachyzoites).
`OC[C@H]1O[C@@H](Oc2cc3c(O)cc(O)cc3[o+]c2-c2ccc(O)cc2)[C@H](O)[C@@H](O)[C@@H]1O` has an IC50 of > 100 µM (HIV-1; viral infection; TZM-bl, BaL (CCR5-tropic); 48 h).
`c1ccc(-c2ccc3c(c2)NC(C2Nc4cc(-c5ccccc5)ccc4O2)O3)cc1` (stereo not shown) has an IC50 of 3.14 ± 1.76 µM (Leishmania martiniquensis; parasite growth; promastigotes; 72 h).
`COc1cc(-c2oc3cc(O)cc(O)c3c(=O)c2O[C@@H]2O[C@H](CO)[C@@H](O)[C@H](O)[C@H]2O)ccc1O` gave an IC50 of > 100 µM (HIV-1; viral infection; TZM-bl, NL4-3 (CXCR4-tropic); 48 h).
The labelling of `CCCCNC(=O)C(C#N)=Cc1cc(F)ccc1F` is reported as 9.7% (UCHL1; covalent, intact protein LC-MS; 12.5 µM).
